Measurements from different studies.
Numbered parts are unrelated; each lists some results of a single study. Substitutions count along the parent as printed.

Block 1 — target: CCNB2, cyclin fold, Cln2 fusion (human); method: yeast growth competition, sequencing; sample: yeast; notes: weak parent motif; reference: not given; reading: higher = stronger binding
Parent: CDKN1B docking peptide (human); PSACRNLFGPVDH
| Variant | normalised enrichment score |
| --- | --- |
| S2G | -0.216 |
| P1E | -0.195 |
| G9W | 0.256 |
| F8W | -0.148 |
| V11I | 0.134 |
| G9K | 0.802 |
| S2W | 0.308 |
| D12C | 0.53 |

Block 2 — method: protein-binding microarray; molecule type: double-stranded DNA, one strand shown; sample: in vitro; concentration: not given; reading: higher = stronger binding
Target: Max dimerization protein 1, bHLH-zipper, MAX partner unstated (MXD1, Homo sapiens, UniProt Q05195, residues 56-136)
Notes: k-mer, scored over probes, only values ≥0.25
Residues (chain): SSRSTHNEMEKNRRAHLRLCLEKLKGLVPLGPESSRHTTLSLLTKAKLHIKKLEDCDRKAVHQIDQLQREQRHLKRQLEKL
| Oligonucleotide | E-score |
| --- | --- |
| CATATGGA | 0.294 |
| CACATGGC | 0.457 |
| CCACGGGG | 0.35 |
| AACTCGTG | 0.403 |
| ATATGCAC | 0.251 |
| CCGAGGAA | 0.267 |
| GCCACCCC | 0.251 |
| ACGTGTCC | 0.394 |
| GCCACGCA | 0.306 |
| ATCACATG | 0.445 |
| CCCCGCCC | 0.357 |

Block 3 — method: RNAcompete; molecule type: RNA; sample: in vitro; concentration: 20 nM; notes: 7-mer, probes averaged, single round; reference: mean of 7-mers; reading: higher = stronger binding
Target: PABPC1L2, full length, GST fusion (mouse, UniProt A0ABA7IW68)
Target sequence (chain): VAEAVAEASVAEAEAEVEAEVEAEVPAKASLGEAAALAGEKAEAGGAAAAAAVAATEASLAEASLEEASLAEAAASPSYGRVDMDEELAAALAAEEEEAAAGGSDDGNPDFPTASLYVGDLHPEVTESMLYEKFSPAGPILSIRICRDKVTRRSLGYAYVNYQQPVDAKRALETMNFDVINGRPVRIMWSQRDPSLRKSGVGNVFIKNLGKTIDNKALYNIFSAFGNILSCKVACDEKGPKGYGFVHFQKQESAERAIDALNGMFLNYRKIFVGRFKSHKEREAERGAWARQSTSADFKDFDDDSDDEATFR
| Oligonucleotide | 7-mer Z-score |
| --- | --- |
| AAGGGGG | 0.919 |
| CAUUCAC | -0.122 |
| UCUCUCA | -0.32 |
| UCUACCA | -0.144 |
| ACACCGU | -0.0881 |
| GUCGUUG | -0.376 |
| GUUUCUC | -0.405 |
| AGUAGGG | 0.126 |
| AGUUCUA | -0.255 |
| AGCGCAA | -0.00289 |
| UCACGGA | -0.0917 |
| ACGGCUG | 0.095 |

Other studies, line by line
| Molecule | target | assay | test system | conditions | scale | endpoint | value |
| --- | --- | --- | --- | --- | --- | --- | --- |
| PhoQ, residues 284 288 289 292 302 303 SACGEM | PhoP, residues 12 14 15 18 19 TPLRH (Escherichia coli, UniProt P23836) | Sort-seq, refers to: YFP reporter | E. coli | PhoQ-PhoP variant library, with: 10 µM Mg2+ | reference: high Mg2+ state, higher = stronger signaling | fold induction | 3.45 |

Some of these lines once more (block 2):
| Oligonucleotide | E-score |
| --- | --- |
| GCCACCCC | 0.251 |
| ACGTGTCC | 0.394 |
| GCCACGCA | 0.306 |
| ATCACATG | 0.445 |
